Earlier results that unrelated publications cite.
Protocols differ between the studies behind these lines.
Sequence of UniProt Q8NEV4 (whole entry, looked up): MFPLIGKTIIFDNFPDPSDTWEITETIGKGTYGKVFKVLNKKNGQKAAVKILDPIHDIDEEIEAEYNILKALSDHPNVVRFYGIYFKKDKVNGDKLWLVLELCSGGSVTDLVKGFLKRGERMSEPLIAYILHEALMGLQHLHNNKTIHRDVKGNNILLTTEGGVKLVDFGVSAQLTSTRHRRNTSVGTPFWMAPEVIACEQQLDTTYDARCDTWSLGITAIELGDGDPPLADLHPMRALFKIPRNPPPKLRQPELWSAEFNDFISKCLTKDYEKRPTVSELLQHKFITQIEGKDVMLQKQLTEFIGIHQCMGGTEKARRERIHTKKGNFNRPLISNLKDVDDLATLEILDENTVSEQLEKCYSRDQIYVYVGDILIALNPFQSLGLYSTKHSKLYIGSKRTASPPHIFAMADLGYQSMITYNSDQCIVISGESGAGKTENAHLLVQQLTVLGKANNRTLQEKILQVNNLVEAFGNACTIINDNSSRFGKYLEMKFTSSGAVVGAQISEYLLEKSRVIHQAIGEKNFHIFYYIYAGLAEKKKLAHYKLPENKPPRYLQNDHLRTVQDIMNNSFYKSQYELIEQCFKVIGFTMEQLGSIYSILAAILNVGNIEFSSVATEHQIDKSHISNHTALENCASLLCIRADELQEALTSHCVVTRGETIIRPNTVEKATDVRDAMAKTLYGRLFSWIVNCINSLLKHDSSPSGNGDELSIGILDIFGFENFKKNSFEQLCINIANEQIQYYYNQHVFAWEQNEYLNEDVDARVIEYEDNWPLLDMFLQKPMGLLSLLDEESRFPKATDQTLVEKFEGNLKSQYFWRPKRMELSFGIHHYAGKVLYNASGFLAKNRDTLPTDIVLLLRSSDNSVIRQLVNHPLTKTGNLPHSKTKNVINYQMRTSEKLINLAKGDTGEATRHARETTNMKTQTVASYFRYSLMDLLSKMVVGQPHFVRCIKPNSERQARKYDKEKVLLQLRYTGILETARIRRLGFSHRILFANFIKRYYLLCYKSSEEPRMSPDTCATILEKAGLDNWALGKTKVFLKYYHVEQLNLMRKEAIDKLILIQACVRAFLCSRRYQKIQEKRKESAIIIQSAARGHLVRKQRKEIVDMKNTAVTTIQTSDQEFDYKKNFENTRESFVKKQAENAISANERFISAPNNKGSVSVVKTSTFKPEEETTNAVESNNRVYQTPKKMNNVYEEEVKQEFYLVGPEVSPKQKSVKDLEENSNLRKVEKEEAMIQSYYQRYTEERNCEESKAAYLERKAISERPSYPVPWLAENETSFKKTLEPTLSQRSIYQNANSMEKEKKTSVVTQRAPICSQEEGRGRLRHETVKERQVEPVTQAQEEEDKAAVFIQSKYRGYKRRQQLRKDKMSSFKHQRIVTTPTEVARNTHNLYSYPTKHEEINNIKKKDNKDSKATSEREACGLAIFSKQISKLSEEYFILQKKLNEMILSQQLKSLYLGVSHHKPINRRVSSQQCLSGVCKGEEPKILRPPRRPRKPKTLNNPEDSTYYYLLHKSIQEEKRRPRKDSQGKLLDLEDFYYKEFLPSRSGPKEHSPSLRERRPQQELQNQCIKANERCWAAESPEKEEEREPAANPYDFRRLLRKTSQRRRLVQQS

| SMILES | tested on | test | system | setting | scale | endpoint | result |
| --- | --- | --- | --- | --- | --- | --- | --- |
| CNC(=O)c1ccc(Nc2ncc(C(F)(F)F)c(NCc3nccnc3N(C)S(C)(=O)=O)n2)cc1 |  |  | patients with KRAS mutant NSCLC | dose not given | relative to: patients | patients with related adverse events | 76% |
| COc1cc(C(=O)O)ccc1NC(=O)[C@@H]1N[C@@H](CC(C)(C)C)[C@](C#N)(c2ccc(Cl)cc2F)[C@H]1c1cccc(Cl)c1F |  |  | patients with solid tumours or lymphomas | dose not given, grade ≥3, first-in-human trials |  | patients with related thrombocytopenia | 33% |
| CO[C@@H](C)Cn1c(=O)n(C)c2cnc3ccc(-c4cncc(C(C)(C)O)c4)cc3c21 |  | item: fatigue | cancer patients | dose not given, monotherapy |  | patients with related adverse event | 36.5% |
| COc1cc2nccc(Oc3ccc(NC(=O)C4(C(=O)Nc5ccc(F)cc5)CC4)cc3)c2cc1OC |  |  | cancer patients, real-world | dose not given |  | patients requiring dose reduction | ≤ 75% |
| Nc1cc(C(F)(F)F)c(-c2nc(N3CCOCC3)nc(N3CCOCC3)n2)cn1 | Myosin-IIIa (MYO3A, Homo sapiens, UniProt Q8NEV4) | enzyme activity |  | 10 µM | relative to: untreated | remaining activity | 86% |
| COc1ccc(CN2C3CC2CN(c2ccc(-c4cc(OCC(C)(C)O)cn5ncc(C#N)c45)cn2)C3)cn1 |  |  | RET-positive thyroid cancer patients | dose not given |  | patients with dose reduction | 30% |
| CC(C)[C@@H](CS(=O)(=O)C(C)C)N1C(=O)[C@@](C)(CC(=O)O)C[C@H](c2cccc(Cl)c2)[C@H]1c1ccc(Cl)cc1 |  |  | patients with solid tumours or lymphomas | dose not given, grade ≥3, first-in-human trials |  | patients with related thrombocytopenia | 33% |
| Nc1ccn([C@@H]2O[C@H](CO)[C@@H](O)C2(F)F)c(=O)n1 |  |  | pancreatic cancer patients | dose not given |  | patients with dose reduction | 25% |
| COc1ncc(-c2nc3c(n2C(C)C)[C@H](c2ccc(Cl)cc2)N(c2cc(Cl)cn(C)c2=O)C3=O)c(OC)n1 |  |  | patients with solid tumours or lymphomas | dose not given, grade ≥3, first-in-human trials |  | patients with related neutropenia | 23% |
| CC(C)C[C@H](NC(=O)[C@H](Cc1ccccc1)NC(=O)c1cnccn1)B(O)O |  |  | newly diagnosed multiple myeloma patients | dose not given |  | patients with peripheral neuropathy | ≤ 64% |

For quick reference, copied from above:
| SMILES | tested on | test | system | setting | scale | endpoint | result |
| --- | --- | --- | --- | --- | --- | --- | --- |
| CNC(=O)c1ccc(Nc2ncc(C(F)(F)F)c(NCc3nccnc3N(C)S(C)(=O)=O)n2)cc1 |  |  | patients with KRAS mutant NSCLC | dose not given | relative to: patients | patients with related adverse events | 76% |
